Measured values pooled from the literature.
Lines come from different studies, so protocols differ. Several values in a cell are separate wells, animals, samples, runs or records. ± gives the spread as reported.

Structure (SMILES) = CCN1CCN(Cc2ccc(Nc3ncc(F)c(-c4cc(F)c5nc6n(c5c4)[C@H](C)CCC6)n3)nc2)CC1; test system = human advanced solid tumours; conditions = 300 mg, phase Ia monotherapy RECIST 1.1; endpoint = non-CR/non-PD; value = 0%
Structure (SMILES) = CN(C(=O)n1cnc(-c2ccc[n+]([O-])c2)c1)C1CCCCC1; test system = rat, brain; conditions = 10 mg/kg, 4 h; endpoint = peak OEA level; value = 2.1 ± 0.2 nmol/g
Structure (SMILES) = Cn1cc(Nc2nccc(-c3ccc4c(c3)CN(C3COC3)CC[C@H]4NC(=O)c3cn(C(C)(C)C)nn3)n2)cn1; assay = item: CXCR4 signalling; test system = mouse splenic B cells, mouse; conditions = 30 mg/kg, IgD-activated B cells in vivo; scale = baseline: vehicle, direction not given; endpoint = pathway activation z-score; value = 3.71
Structure (SMILES) = Nc1nc(OCc2ccccc2)c2nc[nH]c2n1; tested on = THP-1; assay = pyroptotic LDH release; conditions = 2 µM, 40 min, together with: LPS then nigericin; endpoint = inhibition; value = -36.2%
Structure (SMILES) = COc1nc(NCc2cn(-c3ccc(C(=O)Nc4ccc(C)cc4)cc3)nn2)nc(OC)n1; assay = MTT; test system = normal colonocytes, rat; conditions = 72 h; endpoint = maximum non-toxic concentration; value = 40.2 ± 1.23 nM
Structure (SMILES) = CC(C)NCC(O)c1ccc(O)c(O)c1 (centres unmarked); test system = ventricular cardiomyocytes, C57BL/6 mouse; conditions = dose not given, 0.704 s; endpoint = sarcomere length; value = 1.72 µm
Structure (SMILES) = C[C@H]1O[C@@H](O[C@H]2CC[C@@]3(C)[C@@H](CC[C@]4(C)[C@@H]3C=C[C@]35OC[C@@]6(CCC(C)(C)C[C@H]63)[C@@H](O)C[C@]54C)[C@]2(C)CO)[C@H](O)[C@@H](O[C@@H]2O[C@H](CO)[C@@H](O)[C@H](O)[C@H]2O)[C@H]1O; test system = chronic-plus-binge ethanol-fed mice; conditions = oral, 15 mg/kg/day, 7 d; scale = baseline: body weight; endpoint = liver index; value = 3.91% and 3.56% and 4.72% and 4.35% and 4.26% and 3.48%
Structure (SMILES) = N#Cc1ccn2c(-c3ccncc3)c(-c3ccc(F)cc3)nc2c1; assay = kinase binding, competitor, MIB/MS competition, item: AKL1; test system = Candida albicans cell lysate; conditions = 100 nM; scale = baseline: DMSO; endpoint = log2 fold change; value = -0.115
Structure (SMILES) = CN[C@@H]1COc2c(S(=O)(=O)NC(=O)Nc3c4c(cc5c3CCC5)CCC4)cnn2C1; assay = item: IL-18; test system = human participants, whole blood ex vivo; conditions = 150 mg single dose, 24 h, IL-18, circulating, adjusted for, together with: LPS/ATP; scale = baseline: baseline; endpoint = inhibition; value = 78.1%
Structure (SMILES) = OC(CCN1CCCCC1)(c1ccccc1)C1CC2C=CC1C2 (centres unmarked); assay = resting-state EEG; test system = healthy elderly humans; conditions = oral, 4 mg, eyes open, LS mean; scale = baseline: baseline; endpoint = change in EEG Beta2-power Pz-O1; value = -2.2%
Structure (SMILES) = CC#CC(=O)N[C@H]1CCCN(c2c(F)cc(C(N)=O)c3[nH]c(C)c(C)c23)C1; test system = healthy volunteers, single ascending dose, serum; conditions = 3 mg, day 10; endpoint = change from baseline in serum IgM; value = 83.3 mg/L
Structure (SMILES) = CCCCC1(CCCC)CN(c2ccccc2)c2cc(SC)c(OCC(=O)N[C@@H](C(=O)NCC(=O)O)c3ccccc3)cc2S(=O)(=O)C1; assay = item: 7α-hydroxy-4-cholesten-3-one; test system = human, plasma; conditions = 5 mg once daily, day 13; endpoint = plasma C4; value = 61.5 ng/mL
Structure (SMILES) = NCC(=O)Nc1cncc(-c2nn3c(=O)cc(N4CCNCC4)nc3s2)c1; assay = light transmission aggregometry; test system = human, stable CAD on aspirin, platelets ex vivo; conditions = subcutaneous, 0.075 mg/kg, 24 h post-dose, median, together with: ADP 20 µM; endpoint = inhibition of platelet aggregation; value = 2.7%
Structure (SMILES) = N#Cc1ccc2c(c1)[C@H]1CCCN(C(=O)c3ccc4[nH]cnc4c3)[C@H]1C2; test system = T2DM patients with overweight or obesity, urine; conditions = oral, 80 mg, day 14, 0-24 h, multiple dosing, adjusted geometric mean; scale = baseline: baseline day -1, -24-0 h; endpoint = total urinary corticosteroid excretion; value = 176%
Structure (SMILES) = O=C(COc1ccc(Cl)cc1)NC12CC(c3nnc([C@H]4C[C@@H](OC(F)(F)F)C4)o3)(C1)C2; assay = item: ATF4; test system = PBMC ex vivo stimulated, human ALS patients; conditions = 100 mg, D7 predose; scale = baseline: baseline; endpoint = protein level change; value = -68.6%
Structure (SMILES) = Cc1cc(F)cc2c(CCC(=O)N[C@@H]3C(=O)NC[C@H]3O)c(-c3ccc(F)cc3)[nH]c12; test system = APOL1 G2 mice, IFNγ-induced; conditions = 30 mg/kg twice daily, day 14; endpoint = urine albumin/creatinine ratio; value = 219 µg/mg and 78.8 µg/mg and 56.4 µg/mg and 1070 µg/mg and 30.7 µg/mg
Structure (SMILES) = O=C(/C=C/c1ccc(O)c(O)c1/C=C/c1ccc(O)c(O)c1)O[C@H](Cc1ccc(O)c(O)c1)C(=O)O; test system = isolated myocardial tissue; conditions = 10 µM; endpoint = LVP; value = 19.9 mmHg
Structure (SMILES) = CN(C)C(=O)Oc1cccc([N+](C)(C)C)c1; assay = neuromuscular block reversal; test system = rat; conditions = dose not given, 1.5 (unit not given), together with: cisatracurium; scale = baseline: T1 twitch; endpoint = train-of-four ratio; value = 4.59
Structure (SMILES) = O=C(O)CNC(=O)Cc1ccccc1; test system = ventricular cardiomyocytes, C57BL/6 mouse; conditions = dose not given, 0.812 s; endpoint = sarcomere length; value = 1.67 µm
Structure (SMILES) = C[C@H]1C[C@H]2CSC(N)=N[C@@]2(c2nc(NC(=O)c3ccc(OC(F)F)cn3)cs2)CO1; assay = item: total Aβ; test system = healthy adults, plasma; conditions = 200 mg single dose, 6 h post-dose; scale = baseline: placebo; endpoint = percent change from baseline; value = -51.8%
Structure (SMILES) = CC[C@H](CO)Nc1nc(NCc2ccc(-c3ccccn3)cc2)c2ncn(C(C)C)c2n1; test system = NOD scid gamma mouse, IMR-32 xenograft, tumour; conditions = ip, dose not given, daily dosing; endpoint = CK1ε protein level; value = decreased
Structure (SMILES) = COc1nc(NCc2cn(-c3ccc(C(N)=O)cc3)nn2)nc(OC)n1; assay = MTT; test system = normal colonocytes, rat; conditions = 72 h; endpoint = maximum non-toxic concentration; value = 4.57 ± 0.18 nM
Structure (SMILES) = N=C(N)NCCC[C@H](NC(=O)[C@H](CCCNC(=N)N)NC(=O)[C@H](CCCCN)NC(=O)[C@H](CCC(N)=O)NC(=O)[C@H](CCCCN)NC(=O)[C@H](Cc1ccc(O)cc1)NC(=O)[C@@H](N)CCCCN)C(=O)N[C@@H](CO)C(=O)N[C@@H](Cc1ccc(O)cc1)C(=O)N[C@@H](CCCCN)C(=O)O; test system = dentin hypersensitivity patients; conditions = 2.5 µg/tooth single, day 22, higher-VAS tooth; scale = baseline: baseline; endpoint = cold water VAS change; value = -38.3 ± 18.6 mm
Structure (SMILES) = N#Cc1ccc2c(CN3CCOCC3)cc(-c3ccc([C@H]4CCC(=O)N4)cc3)nc2c1; assay = no effect, item: Il6; test system = BTBR ob/ob mice, female, diabetic wound model, wound tissue; conditions = dose not given, 21 days; scale = baseline: vehicle; endpoint = mRNA level; value = no effect
Structure (SMILES) = CC1(C)CCC2(CC1)N[C@@H](C(=O)N[C@@H]1CC[C@@H](C(N)=O)OC1)[C@H](c1ccnc(Cl)c1F)[C@]21C(=O)Nc2cc(Cl)ccc21; test system = human, solid tumours; conditions = 90 mg/day, RECIST; scale = baseline: patients; endpoint = non-evaluable patients; value = 20%
Structure (SMILES) = Cc1cc([C@H]2C[C@H]3[C@@H](CF)SC(N)=N[C@@]3(c3ccc(F)cc3F)CO2)on1; assay = item: Aβx-42; test system = Mus musculus wild-type, brain; conditions = subcutaneous, 100 mg/kg, 3 h; endpoint = Aβ42 level; value = 0.41 ng/g
Structure (SMILES) = CC1(C)CC[C@]2(NC(=O)C(C)(F)F)CC[C@]3(C)[C@H](C(=O)C=C4[C@@]5(C)C=C(C#N)C(=O)C(C)(C)[C@@H]5CC[C@]43C)[C@@H]2C1; tested on = THP-1; assay = pyroptotic LDH release; conditions = 2 µM, 40 min, together with: LPS then nigericin; endpoint = inhibition; value = 89.2%
Structure (SMILES) = O=P(O)(O)C(Cl)(Cl)P(=O)(O)O; assay = endothelial activation, immunostaining; test system = Mus musculus, sham-operated, cortical capillary endothelium; conditions = dose not given; endpoint = VCAM-1 level; value = 6.38 MFI
Structure (SMILES) = c1ccc(-c2n[nH]cc2-c2ccnc3ccccc23)nc1; assay = kinase binding, competitor, MIB/MS competition, item: IRE1; test system = Candida albicans cell lysate; conditions = 1 µM; scale = baseline: DMSO; endpoint = log2 fold change; value = 1.04

Repeated from above:
Structure (SMILES) = Cc1cc(F)cc2c(CCC(=O)N[C@@H]3C(=O)NC[C@H]3O)c(-c3ccc(F)cc3)[nH]c12; test system = APOL1 G2 mice, IFNγ-induced; conditions = 30 mg/kg twice daily, day 14; endpoint = urine albumin/creatinine ratio; value = 219 µg/mg and 78.8 µg/mg and 56.4 µg/mg and 1070 µg/mg and 30.7 µg/mg
Structure (SMILES) = CC[C@H](CO)Nc1nc(NCc2ccc(-c3ccccn3)cc2)c2ncn(C(C)C)c2n1; test system = NOD scid gamma mouse, IMR-32 xenograft, tumour; conditions = ip, dose not given, daily dosing; endpoint = CK1ε protein level; value = decreased
